Measurements pooled from the literature.
± gives the spread as reported.

COc1cc2ccnc(Cc3ccc(O[11CH3])c(OC)c3)c2cc1OC  tissue uptake (Sprague-Dawley rat, brain; intravenous, 5 min): 0.154 ± 0.013 %ID/g
CCN(CC)c1ccc2c(-c3ccccc3C(=O)OCCOCC[18F])c3ccc(=[N+](CC)CC)cc-3oc2c1  tissue uptake (rat, liver; 60 min): 0.49 ± 0.04 %ID/g
CN(C)c1ccc(C(=O)NCCCCN2CCN(c3ccccc3O[11CH3])CC2)cc1  tissue uptake (male Sprague Dawley rat, fat; iv, 5 min; reference: untreated): 0.024 ± 0.009 %ID/g
CCN(CC)c1ccc2c(-c3ccccc3C(=O)OCCC[18F])c3ccc(=[N+](CC)CC)cc-3oc2c1  tissue uptake (rat, lung; 60 min): 1.58 ± 0.19 %ID/g
[11CH3]n1c(=O)n(CCCO)c(=O)c2c1nc(Oc1cccc(OC(F)(F)F)c1)n2Cc1ccc(Cl)cc1  tissue uptake (Sprague Dawley rat, tissues other than liver; 60 min): < 1 %ID/g
CCNc1cc2[o+]c3cc(NCC)c(C)cc3c(-c3ccccc3C(=O)OCCOCC[18F])c2cc1C  tissue uptake (rat, blood; 15 min): 0.13 ± 0.03 %ID/g
COc1ccc(NC(=O)Cn2c(=O)c3ccccc3n(CC(=O)Nc3cc([125I])c(OC)cc3OC)c2=O)cc1  tissue uptake (Wistar rat (normal), thymus; intravenous, 0.08333 h): 0.1 ± 0.01 %ID/g
O=C(O)CCCN1CCN2CCN(CC1)CC(=O)[O][Al]([18F])[O]C(=O)C2  tissue uptake (Sprague-Dawley rat renal pedicle ligation, spleen, heart and lung; dose not given, 60 min): < 1%
O=C(c1ccc(F)cc1)C1CCN(C2Cc3c(cccc3OCC[18F])CC2O)CC1 (single isomer, unassigned; (-))  tissue uptake (Sprague-Dawley rat, male, liver; intravenous, dose not given, 60 min): 0.456 ± 0.122 %ID/g

Excerpt of the above:
CCNc1cc2[o+]c3cc(NCC)c(C)cc3c(-c3ccccc3C(=O)OCCOCC[18F])c2cc1C  tissue uptake (rat, blood; 15 min): 0.13 ± 0.03 %ID/g
